Experimental data collected from several papers.
Each numbered part is a random draw from the data of one study; scales do not carry over between parts. Values joined by “and” are separate records of one study, mostly repeats; a detail may differ.
UniProt P53667, sequence (whole entry, looked up): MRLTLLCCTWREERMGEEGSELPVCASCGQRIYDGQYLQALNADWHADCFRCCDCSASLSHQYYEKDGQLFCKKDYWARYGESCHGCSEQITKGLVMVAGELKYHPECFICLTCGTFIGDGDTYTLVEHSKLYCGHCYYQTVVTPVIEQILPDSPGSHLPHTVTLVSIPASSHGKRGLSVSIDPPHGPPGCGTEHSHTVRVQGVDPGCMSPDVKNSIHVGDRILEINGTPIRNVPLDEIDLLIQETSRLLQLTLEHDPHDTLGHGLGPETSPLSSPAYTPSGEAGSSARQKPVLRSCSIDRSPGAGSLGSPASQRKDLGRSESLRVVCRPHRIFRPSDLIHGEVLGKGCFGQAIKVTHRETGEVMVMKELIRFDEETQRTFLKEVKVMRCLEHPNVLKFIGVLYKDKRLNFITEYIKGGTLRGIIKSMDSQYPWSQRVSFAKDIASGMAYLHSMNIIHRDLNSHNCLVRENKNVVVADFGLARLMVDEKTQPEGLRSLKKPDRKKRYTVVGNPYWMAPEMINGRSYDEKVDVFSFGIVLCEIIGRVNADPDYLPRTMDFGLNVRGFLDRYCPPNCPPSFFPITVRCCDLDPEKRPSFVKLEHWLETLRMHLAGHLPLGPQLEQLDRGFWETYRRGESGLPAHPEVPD
UniProt Q9BX84, sequence (whole entry, looked up): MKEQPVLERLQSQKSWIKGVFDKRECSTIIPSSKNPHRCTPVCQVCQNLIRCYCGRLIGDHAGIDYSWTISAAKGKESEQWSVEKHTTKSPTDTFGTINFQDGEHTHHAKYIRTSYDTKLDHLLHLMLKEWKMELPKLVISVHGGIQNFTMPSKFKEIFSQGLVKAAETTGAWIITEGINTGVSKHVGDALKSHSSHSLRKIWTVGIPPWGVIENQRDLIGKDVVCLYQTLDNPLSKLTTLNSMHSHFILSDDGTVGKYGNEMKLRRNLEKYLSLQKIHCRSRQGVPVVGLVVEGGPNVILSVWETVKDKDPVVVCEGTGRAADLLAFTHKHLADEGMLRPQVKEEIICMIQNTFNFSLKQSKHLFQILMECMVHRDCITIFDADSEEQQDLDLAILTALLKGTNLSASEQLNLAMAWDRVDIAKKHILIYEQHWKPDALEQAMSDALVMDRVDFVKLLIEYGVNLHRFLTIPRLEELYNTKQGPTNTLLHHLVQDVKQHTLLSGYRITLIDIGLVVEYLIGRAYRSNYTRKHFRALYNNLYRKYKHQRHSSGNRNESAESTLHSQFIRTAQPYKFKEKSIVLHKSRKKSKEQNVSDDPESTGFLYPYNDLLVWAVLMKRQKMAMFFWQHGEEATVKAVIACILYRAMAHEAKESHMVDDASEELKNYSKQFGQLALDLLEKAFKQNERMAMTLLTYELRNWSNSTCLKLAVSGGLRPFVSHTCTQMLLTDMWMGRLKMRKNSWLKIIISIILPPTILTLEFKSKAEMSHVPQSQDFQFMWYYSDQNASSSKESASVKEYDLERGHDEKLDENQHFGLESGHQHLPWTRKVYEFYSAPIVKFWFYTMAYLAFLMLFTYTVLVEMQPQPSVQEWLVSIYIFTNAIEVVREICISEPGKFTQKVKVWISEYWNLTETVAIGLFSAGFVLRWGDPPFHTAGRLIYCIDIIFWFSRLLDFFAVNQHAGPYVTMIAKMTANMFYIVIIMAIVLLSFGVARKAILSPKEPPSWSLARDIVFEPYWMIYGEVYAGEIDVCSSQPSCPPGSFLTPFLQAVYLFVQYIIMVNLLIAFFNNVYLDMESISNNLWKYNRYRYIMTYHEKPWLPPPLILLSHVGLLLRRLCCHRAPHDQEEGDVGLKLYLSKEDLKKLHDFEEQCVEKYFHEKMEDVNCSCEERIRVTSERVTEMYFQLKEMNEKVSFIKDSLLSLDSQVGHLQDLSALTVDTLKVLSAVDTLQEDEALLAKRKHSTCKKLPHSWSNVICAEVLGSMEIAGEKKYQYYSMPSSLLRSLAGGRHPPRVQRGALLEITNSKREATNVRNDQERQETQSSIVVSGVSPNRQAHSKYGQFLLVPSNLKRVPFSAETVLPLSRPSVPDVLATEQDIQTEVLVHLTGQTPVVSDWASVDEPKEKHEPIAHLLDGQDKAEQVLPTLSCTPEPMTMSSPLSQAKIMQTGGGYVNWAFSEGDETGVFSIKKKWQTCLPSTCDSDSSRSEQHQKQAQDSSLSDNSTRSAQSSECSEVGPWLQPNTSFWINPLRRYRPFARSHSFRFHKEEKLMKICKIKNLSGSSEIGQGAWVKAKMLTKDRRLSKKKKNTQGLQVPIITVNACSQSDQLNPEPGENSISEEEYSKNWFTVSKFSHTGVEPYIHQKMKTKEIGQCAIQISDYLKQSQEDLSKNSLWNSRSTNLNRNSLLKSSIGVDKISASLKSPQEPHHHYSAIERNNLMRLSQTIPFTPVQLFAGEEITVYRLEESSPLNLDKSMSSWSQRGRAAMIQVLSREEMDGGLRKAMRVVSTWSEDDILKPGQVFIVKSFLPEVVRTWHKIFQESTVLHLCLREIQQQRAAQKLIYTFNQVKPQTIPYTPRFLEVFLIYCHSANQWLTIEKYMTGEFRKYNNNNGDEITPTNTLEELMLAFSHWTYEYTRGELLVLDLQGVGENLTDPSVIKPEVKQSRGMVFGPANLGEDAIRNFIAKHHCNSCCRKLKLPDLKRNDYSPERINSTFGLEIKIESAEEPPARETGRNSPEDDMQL
UniProt P53671, sequence (whole entry, looked up): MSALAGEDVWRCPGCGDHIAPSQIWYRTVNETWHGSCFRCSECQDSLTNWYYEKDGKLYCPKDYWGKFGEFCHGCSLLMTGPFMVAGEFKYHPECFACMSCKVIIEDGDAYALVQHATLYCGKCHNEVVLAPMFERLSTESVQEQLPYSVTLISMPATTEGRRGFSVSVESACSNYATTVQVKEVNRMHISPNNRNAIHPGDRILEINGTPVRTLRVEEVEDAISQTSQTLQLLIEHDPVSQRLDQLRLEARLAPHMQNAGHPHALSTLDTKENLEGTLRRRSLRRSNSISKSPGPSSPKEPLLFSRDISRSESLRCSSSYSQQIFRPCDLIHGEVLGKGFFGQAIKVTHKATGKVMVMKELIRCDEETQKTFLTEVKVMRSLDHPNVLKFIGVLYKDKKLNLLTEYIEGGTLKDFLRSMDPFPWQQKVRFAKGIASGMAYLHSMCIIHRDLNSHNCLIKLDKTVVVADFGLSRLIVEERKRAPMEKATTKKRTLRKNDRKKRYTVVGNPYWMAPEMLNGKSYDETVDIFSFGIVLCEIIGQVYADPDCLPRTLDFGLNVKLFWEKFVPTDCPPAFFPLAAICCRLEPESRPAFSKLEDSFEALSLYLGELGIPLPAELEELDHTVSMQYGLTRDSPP
UniProt Q15349, sequence (whole entry, looked up): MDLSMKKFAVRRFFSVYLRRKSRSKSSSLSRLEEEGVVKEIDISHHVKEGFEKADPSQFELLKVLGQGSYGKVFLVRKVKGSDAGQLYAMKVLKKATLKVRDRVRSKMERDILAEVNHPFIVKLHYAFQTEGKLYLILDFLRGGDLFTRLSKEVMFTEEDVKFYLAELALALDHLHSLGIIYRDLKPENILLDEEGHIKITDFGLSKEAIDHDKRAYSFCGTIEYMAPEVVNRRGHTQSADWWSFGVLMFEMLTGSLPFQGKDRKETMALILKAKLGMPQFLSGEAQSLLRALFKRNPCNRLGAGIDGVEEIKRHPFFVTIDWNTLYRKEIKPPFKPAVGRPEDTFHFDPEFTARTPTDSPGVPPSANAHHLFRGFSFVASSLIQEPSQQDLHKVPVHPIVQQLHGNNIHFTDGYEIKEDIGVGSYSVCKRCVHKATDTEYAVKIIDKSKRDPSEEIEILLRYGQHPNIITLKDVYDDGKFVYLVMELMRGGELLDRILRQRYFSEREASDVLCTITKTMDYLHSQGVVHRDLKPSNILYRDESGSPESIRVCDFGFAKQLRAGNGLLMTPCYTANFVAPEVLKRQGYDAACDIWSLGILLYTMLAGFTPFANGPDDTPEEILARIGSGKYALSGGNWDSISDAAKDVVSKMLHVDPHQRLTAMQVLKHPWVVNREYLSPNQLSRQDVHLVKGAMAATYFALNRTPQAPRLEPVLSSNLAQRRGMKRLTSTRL
UniProt P10721, sequence (whole entry, looked up): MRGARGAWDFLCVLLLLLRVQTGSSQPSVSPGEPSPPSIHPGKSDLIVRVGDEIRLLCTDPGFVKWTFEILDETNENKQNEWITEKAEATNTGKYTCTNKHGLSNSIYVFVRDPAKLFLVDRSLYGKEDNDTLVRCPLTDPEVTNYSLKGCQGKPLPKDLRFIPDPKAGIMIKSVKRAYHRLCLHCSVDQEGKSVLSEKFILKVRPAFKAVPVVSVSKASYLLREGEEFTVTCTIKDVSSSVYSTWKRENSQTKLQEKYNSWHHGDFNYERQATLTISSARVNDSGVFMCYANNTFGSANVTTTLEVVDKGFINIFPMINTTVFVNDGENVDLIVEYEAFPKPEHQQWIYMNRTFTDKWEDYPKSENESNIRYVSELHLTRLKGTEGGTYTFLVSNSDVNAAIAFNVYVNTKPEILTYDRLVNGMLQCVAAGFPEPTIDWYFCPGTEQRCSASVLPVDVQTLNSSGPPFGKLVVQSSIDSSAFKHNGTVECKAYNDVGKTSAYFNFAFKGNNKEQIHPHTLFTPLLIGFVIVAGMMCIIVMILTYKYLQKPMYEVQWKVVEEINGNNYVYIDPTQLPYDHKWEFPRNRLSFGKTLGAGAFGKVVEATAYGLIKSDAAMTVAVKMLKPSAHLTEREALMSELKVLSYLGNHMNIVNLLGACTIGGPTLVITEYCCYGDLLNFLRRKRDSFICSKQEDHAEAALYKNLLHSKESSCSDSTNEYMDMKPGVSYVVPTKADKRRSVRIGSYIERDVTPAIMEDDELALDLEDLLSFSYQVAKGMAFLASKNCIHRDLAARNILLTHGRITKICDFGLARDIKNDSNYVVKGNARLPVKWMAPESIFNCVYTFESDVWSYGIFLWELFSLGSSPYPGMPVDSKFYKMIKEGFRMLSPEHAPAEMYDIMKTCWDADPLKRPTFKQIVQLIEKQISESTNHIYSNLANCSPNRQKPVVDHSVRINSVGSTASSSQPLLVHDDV

Series 1
Cell line: mouse MPNST tumor cells
Method: high-content nuclear imaging
Refers to: cell number
Tested at: 10 µM
Time: 12 h
Notes: mean of 2 replicates
Baseline: plate mean
Reading: higher = more cells
Measurement: nuclei count
C[C@@H]1C[C@H]2[C@@H]3C[C@H](F)C4=CC(=O)C=C[C@]4(C)[C@@]3(Cl)[C@@H](O)C[C@]2(C)[C@H]1C(=O)COC(=O)C(C)(C)C: 3.04 z-score
NCCc1cc[nH]n1: 1.21 z-score
O=C(O)c1cn(-c2ccc(F)cc2)c2cc(N3CCNCC3)c(F)cc2c1=O: 1.07 z-score

Series 2
Host: mouse
Medium: microsomes or S9
Tested at: 2 µM
Time: 0.5 h
Measurement: remaining compound
CN1CCCC2(CCN(C3CCN(c4ccc(F)c(F)c4)CC3)C2)C1=O (stereo not shown): 61.1%
Nc1noc2cc(OCCCCCOc3ccc4c(N)noc4c3)ccc12: 70.4%
COc1ccccc1N(C)C(=O)c1cc(S(=O)(=O)N2CCOCC2)cn1C: 18%
Cc1ccccc1-c1nc2ccccc2cc1Cn1nc(-c2ccncc2)c2cnc(N)nc21: 9.35%

Series 3
Cell line: Huh-7
Tested at: 10 µM
Time: 24 h
Measurement: viability
CCOC(=O)c1ccc(N)cc1: 104%
C[N+]1(C)CCCC(OC(=O)C(O)(c2ccccc2)c2ccccc2)C1 (stereo not shown): 98%
CC1CC(OC(=O)c2ccccc2O)CC(C)(C)C1 (stereo not shown): 101%

Series 4
Target: Prothrombin, mature alpha-thrombin (F2, Homo sapiens, UniProt P00734)
Method: aptamer microarray, sandwich
Molecule type: DNA with 2'F-ANA
Medium: in vitro
Tested at: 200 nM
Notes: whole 15-mer aptamer, many near background
With: Cy3 exosite-II aptamer, 400 nM
Reading: higher = stronger binding
Measurement: mean fluorescence intensity
Sequence: GGTTGGTGTGGTTGG
2'F-ANA at 1 2 4 5 6 10 14: 46 a.u.
2'F-ANA at 1 3 6 10 11 12 14 15: 58.7 a.u.
2'F-ANA at 2 10 12 13 14 15: 124 a.u.
2'F-ANA at 1 2 4 6 8 9 12 13 15: 171 a.u.
2'F-ANA at 2 3 4 10 13: 233 a.u.
2'F-ANA at 2 7 8 13 14 15: 165 a.u.
2'F-ANA at 1 4 5 6 7 10 14: 52 a.u.
2'F-ANA at 1 3 4 5 7 10 13 14 15: 46 a.u.

Series 5
SMILES: CCC(=O)N[C@@H]1CC[C@H](C(=O)N(C)c2ccc(-c3nc4ccccc4o3)cc2)C1
Tested at: 1 µM
Measurement: remaining binding
KIT (Homo sapiens, UniProt P10721); cell-free assay, competition with immobilised ligand: 100%
CHEK1 (Homo sapiens, UniProt O14757); cell-free assay, competition with immobilised ligand: 100%
Ribosomal protein S6 kinase alpha-2, C-terminal kinase domain (RPS6KA2, Homo sapiens, UniProt Q15349); cell-free assay, competition with immobilised ligand: 100%
Tyrosine-protein kinase ABL1, phosphorylated (ABL1, Homo sapiens, UniProt P00519, M351T); cell-free assay, competition with immobilised ligand: 100%
CDC42BPG (Homo sapiens, UniProt Q6DT37); competition binding: 100%
TIE1 (Homo sapiens, UniProt P35590); cell-free assay, competition with immobilised ligand: 95%
STK11 (Homo sapiens, UniProt Q15831); cell-free assay, competition with immobilised ligand: 51%
MAP4K3 (Homo sapiens, UniProt Q8IVH8); cell-free assay, competition with immobilised ligand: 100%
LIM domain kinase 1 (LIMK1, Homo sapiens, UniProt P53667); cell-free assay, competition with immobilised ligand: 100%
TRPM6 (Homo sapiens, UniProt Q9BX84); cell-free assay, competition with immobilised ligand: 84%
ACVR2A (Homo sapiens, UniProt P27037); cell-free assay, competition with immobilised ligand: 100%
FLT3 (Homo sapiens, UniProt P36888, N841I); cell-free assay, competition with immobilised ligand: 100%
LIM domain kinase 2 (LIMK2, Homo sapiens, UniProt P53671); cell-free assay, competition with immobilised ligand: 100%
PDGFRA (Homo sapiens, UniProt P16234); cell-free assay, competition with immobilised ligand: 86%
TSSK1B (Homo sapiens, UniProt Q9BXA7); cell-free assay, competition with immobilised ligand: 76%
MAP3K6 (Homo sapiens, UniProt O95382); cell-free assay, competition with immobilised ligand: 75%

Single results of other studies
Cc1ccc(NC(=O)c2ccc(CN3CCN(C)CC3)cc2)cc1Nc1nccc(-c2cccnc2)n1 — inhibition (AlphaScreen signal, AlphaScreen counter screen; His6 peptide without bromodomain; 50 µM, assay interference check): 26.2% and 17.9%
CC(C)n1cnc(-c2ccc(F)cc2)c1-c1ncc(C(=O)Nc2ccc(N3CCN(C)CC3)cc2)[nH]1 — patients with hepatic steatosis (human, idiopathic pulmonary fibrosis; 60 mg once daily, trial, treatment-emergent): 0%
CCCCCCCCN[C@@H](C)[C@H](O)c1ccc(SC(C)C)cc1 (racemic) — viability (A-375; 100 µM, 36 h): 0.204%
